Published values pooled from the literature.
Each numbered part is a random draw from the data of one study; scales do not carry over between parts. Positions count from the first letter of the parent shown.

Sample 1
Target: RNA binding protein fox-1 homolog 2, RRM domain, GST-SBP tag (RBFOX2, Homo sapiens, UniProt O43251-10, residues 100-194)
Method: RNA Bind-n-Seq
Molecule type: RNA
Medium: in vitro
Tested at: 365 nM
Setting: natural RNA segment, single round, ends assumed
Reference: no-protein control
Reading: higher = stronger binding
Measurement: RBNS enrichment (R)
Shared flanks, not repeated: GGGAGUUCUACAGUCCGACGAUC … UGGAAUUCUCGGGUGCCAA
Construct (chain): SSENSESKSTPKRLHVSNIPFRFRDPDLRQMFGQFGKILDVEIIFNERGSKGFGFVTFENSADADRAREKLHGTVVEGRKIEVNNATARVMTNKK
GAGACGCUGUAUGUGUAAACAUCCUGUAAACUUCGUACAAAUGUGAAGUAUUAUUAAUAUUGCUACAGUGUUAUUAUGAUAUUGUUACUAUUAACCAUGUUGGGUGGAUA: 0.48
GGCUGGCCCUCAUUCGGGGUCGGGAACCAAGGGUGUGUCUGCUCUUUCCCUCCCCAUCCUCUGGCAGAAAUCAGCUAGACGCUAUACCGUGGACUCUCCCUGGUCCACCA: 0.355
CUCCCCCUGAGGUCACUUCCUGGUAGUGUCCCAAUGCUCUGUGUGCAGUUACUUCAGGUUGAAGUUGCCUUGAUCGCCUGCCCCUCAUCAGGGCUUUUGCUUUUCUUCAA: 2.49
UCGGUCCCUGCCUUGUCUGUCUAGGCCCAUUUGGGGCUCCCUGUGAGUGAUUCCCCUCUCUCUGCUAUGCUGGAGACGGUUCCAGCCUGGAAAGCGGCCAAGUUCAUCUU: 0.305
CCUUGAAAUAAUAUUUGACUAUAUAGGUACAUAUCUGUAAAAGAUGACCACCUUAACUAAAUCAGAUUUUACAUUUAUAAAUUUUAUAUUUAAUUAGUCAAAUCAAUUUU: 0.846
GAUGGACUUGAAUGCAUUUUUGUCUCUUCUUGAUGAAGCGGCUUUGCCGCAGCAAAUGAGGCUUCUCUCUGAGGAGCUGAGAGGUCUUGCAGCCUCUCCUUGUCAUUCUC: 0.283
GUUCCAAGGAAACAAUUAUUGCCUGAUGACCACUUCCAUUUUGUAUACACUCUUUGGUUCGUAUAGGCCAUAUUCCAACUGGCUUUUUAGUAAUAGAAAUCCAGUAUAUA: 0.26
CCCAUUUUCUGAGGAUAAAUUCAAGCCCCCUGCAGAAAUUUGCAUAAGUAACAAGGAGCCAAAUGUUAAUCACUAAGACAUGGGGAAAAUGUCUGCAGGGCAUGUCAGAG: 0.875
CUGAUAGUUGUUGGGAAUAUAUAAUUUACUGGACCUCAGCCCAAAUCAAGAUGCUUAAAAUUGUACUUGUGGAGCUUCACUCAAACCAAUGUGUCAAAUAACGUAUUGAA: 0.617
AGAUGGCCAUAGGAGAGGAGGGUUCCUCUUAGGUCAGAUGGAGGUUCUCAGAGCCAAGUCCUCCCUCUCUACUGGAGUGGAAGGUCUAUUGGCCAACAAUCCUUUCUGCC: 0.305
AUGGACAUUUUUGUAACUCAGCUCAUAUUCUGACUGUAUUUGAGAAGCUGGCUGUUUAAGGGAACCCAGAAGUGAAUUCUUUUGUAAAGUAAAGCACCCUUUUGUAAUGC: 1.2
CCAACUGAAUAAGAGUUUGUAUUGUGUGUGUGUUCCUUGAAACCAAUGAUUUUCAAACUUUACAGCUUCAGAAUCACCCAGAGGGCUUGUUAAGACACUACUUGGUGGAC: 0.29

Sample 2
Target: CCNB1, cyclin fold, Cln2 fusion (human)
Method: yeast growth competition, sequencing
Medium: yeast
Setting: weak parent motif
Reference: not given
Reading: higher = stronger binding
Measurement: normalised enrichment score
Starting sequence: SAMHD1 docking peptide (human); ASKSRVQLFKDDP
R5V: 0.287
K3V: 0.109
V6H: -0.217
F9N: 0.202
L8R: 0.501
S2W: 0.194
D12W: -0.395
R5K: 0.21
R5C: 0.293
L8C: 0.264
Q7A: 0.205
L8N: 0.296
Q7V: 0.175
L8M: 0.258
V6E: -0.254
D11P: 0.441
L8D: -0.141
D12L: -0.107
L8K: 0.206
V6P: -0.312
R5L: -0.152

Sample 3
Target: RING finger protein unkempt homolog, zinc fingers 1-6, SBP tag (UNK, Homo sapiens, UniProt Q9C0B0, residues 30-357)
Chain of UniProt Q9C0B0 (30-357, looked up): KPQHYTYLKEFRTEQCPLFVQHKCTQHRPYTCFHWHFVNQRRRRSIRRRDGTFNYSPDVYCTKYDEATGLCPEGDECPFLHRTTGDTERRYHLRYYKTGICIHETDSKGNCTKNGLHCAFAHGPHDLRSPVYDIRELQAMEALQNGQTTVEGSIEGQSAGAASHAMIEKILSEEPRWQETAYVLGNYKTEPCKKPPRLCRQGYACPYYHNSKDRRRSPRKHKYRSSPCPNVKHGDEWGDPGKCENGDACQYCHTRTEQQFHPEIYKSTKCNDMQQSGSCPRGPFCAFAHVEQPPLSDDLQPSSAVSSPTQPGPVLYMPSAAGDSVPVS
Method: RNA Bind-n-Seq
Molecule type: RNA
Medium: in vitro
Tested at: 100 nM
Setting: RNA with constant flanks, vertebrate orthologous sites, ends assumed
Reference: input RNA pool
Reading: higher = stronger binding
Measurement: bound/input enrichment
Shared flanks, not repeated: GGGAGUUCUACAGUCCGACGAUC … CAACAGAGGAUUGAGCAUCA
ACGCUUUGAUAUUAAAUUUGACAUAAAAAGCAGCUGAUUGUAAGCACAACUCUUUCCUCCUAGCCAUUUAAAAAAGGUAAAAGACAAAAAAGAAAACCUACUAGUCUUGAACAAACUGUC: 0.683 ratio
AUCAUGGCCGCUUUUACCUGCCUCAAUGAGGUAACGUCUCCCCUGACACUGGGUUGGCACCAGACCCCAUCACACCUAAUAUGUCUUUCCACAUUUUAUCUCUCUAUGCUCACACUCAUC: 1.27 ratio
CCCCAGUUUGUAUGUACAUUAUUCAUAUUCCUCUCUGUUUUGUUGGGAAAAAAAGACAUCUUAACCUUCUUUAAGGUUGUUGAUUUAAUUUCAUGUUAUUAGGUUGCAUGAUGUUGCCCU: 0.27 ratio
UCCUCAACUUGUUCUAGCUUGUGAUCCUUCAAAGUUGGGUCAGGCAUUAGUGCUAGAUACUAGAAAUUUUCAUUUCCCUGUUGUUAUUGAUCAGCGGGACAGGCAUUAAUUAAAAACAGA: 0.875 ratio
UAAUGUAUUCAGAACCUUAUAGUAAAAGAGCCAAGCAGUAGCAUUGUUUUUUUGUAAAUGUAGAGUCAGACUUUGUUUCCUUACUCAAUUUUAAAAAUAAAAAUACCUCAGUGCUAUGUU: 0.525 ratio
GUGUGUGGGGUAGCCUUGGCUCCUGCCUUGGCCUUGCCUCUCCUUCCUGUCACCUGCCCCUAGUUAUUUUUUUUUAACCACCACGUGAUUAUGGUCGGCGCUGCCUCCUCCCGACCUGCU: 5.63 ratio
CCACACCAGAUACUUUAACUGUUUUAAAGUUACAAACAAGCUUUGCUUUUUGCAUUUAAGUAGAAUACUUUUAUAUUGUAAGUGCUUCAGAUGUGUGGAGAUGUUAGUUUGCUCUUAUAA: 0.408 ratio
GGUGGUGGUUGUGCAUAUAAUUUCAUUUAUAAAAUAUAAACCUACAUUUUGUUUUGAAGCUAGGUAUUAAACUUGGAGUAGCUAUACACCCCUGAGAAAUGGGCACUGUGCCCUCACCCU: 0.827 ratio
GCUGUUGUGUAAAAUGUCUGCCCAGAGAAGUAUCACUCUAUAAAUAUUAAUCAAAUAGUUUACCUAUAGUCUUCUUAAGUAUUGAAUUAUAUGUCAAGCAUUUAAAGUGAGUUUGAGAUG: 0.516 ratio
CACGCGUACUGUGGCAUAUAGUCAACAUGGGAAGUAGACCAGCUCUGCUGAUUUGAAAUUUAGAUUUUUUUAAUUAUGUACUGGGGACAGGUUUUUGUCGCUUUACAUUGCUUCCUAGUU: 3.44 ratio
UAUUUUCUUAUUUUAGGUAUCAUUGCCCAGUGCCUAAGAUCUUUUAUGUUCAGCUCACUGUAGGAAAUAAUGAAUUUUUUGGAGAAGGAAAGACUCGACAAGCUGCUAGACACAAUGCUG: 1.34 ratio

Sample 4
Target: Interferon regulatory factor 5, full length, phosphomimetic (IRF5, Homo sapiens, UniProt Q13568-2, residues 1-514, S451D/S453D/S456D/S462D)
Method: protein-binding microarray
Molecule type: double-stranded DNA, one strand shown
Medium: in vitro
Tested at: 940 nM top
Setting: 60-bp whole probe
With: salmon DNA 0.4 mg/ml
Reference: random background probes
Reading: higher = stronger binding
Measurement: fitted relative affinity
Shared flanks, not repeated: GCCTAGCAC … GTCTTGATTCGCTTGACGCTGCTG
GACGGTATCGGGTTTCGTGACGTGCTA: 4.62 z-score
CTAGGTTCCGGTTTCGGTTAGTGCTAG: 8.98 z-score
TTAGATCTCAGTTTAGATTAGTGCTAG: 0.646 z-score
GACCGTATCCTACTGCTGACGTGCTAG: 0.145 z-score
TTAGGACTGGACTTTTGGTTAGTGCTA: -0.149 z-score
TCATCATTTTCTCTGTTACTGTGCTAG: 2.49 z-score
TCAAATTTCTTCCTCCCACTGTGCTAG: 1.09 z-score
TTAGATCTCGGTCTCGATTAGTGCTAG: 3.19 z-score
AGGACCATCCCTTATAAATAGGTGCTA: 0.529 z-score
GACGGTTTCGACTATAGGGACGTGCTA: 8.28 z-score
TCACATTTTTTTTCATCACTGTGCTAG: 1.86 z-score
TTTTCATTATTGTGTCAACTTGTGCTA: 1.48 z-score
GCCCATCTCTGCTCCTTCTGGTGCTAG: 0.733 z-score
TTAGGTCTCCTTTCCCTTTAGTGCTAG: 0.554 z-score

Sample 5
Target: MAFK, bZIP domain (human)
Method: DHFR protein complementation
Medium: yeast
Setting: single substitutions, most at no-binding floor
Reference: wild-type JUN-FOS pair
Reading: higher = stronger binding
Measurement: binding fitness
Starting sequence: JUN, bZIP domain (human); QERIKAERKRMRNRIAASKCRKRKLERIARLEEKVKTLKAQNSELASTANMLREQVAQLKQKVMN; partner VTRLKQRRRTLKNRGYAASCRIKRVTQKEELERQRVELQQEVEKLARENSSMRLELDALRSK
A49Y: -1.38 natural log
K39A: -1.53 natural log
K39I: -1.37 natural log
T48F: -1.46 natural log
Q41K: -1.54 natural log
L31C: -1.52 natural log
L45M: -1.41 natural log
T48E: -1.48 natural log
E32V: -1.48 natural log
M51P: -1.46 natural log
V56T: -1.5 natural log
E54T: -1.51 natural log
R53V: -1.53 natural log
L38C: -1.54 natural log

Single results of other studies
PhoQ, residues 284 288 289 292 302 303 TVTVVA
fold induction (PhoP, residues 12 14 15 18 19 TPLRH (Escherichia coli, UniProt P23836); Sort-seq, refers to: YFP reporter; E. coli; PhoQ-PhoP variant library, with: 10 µM Mg2+; reference: high Mg2+ state, higher = stronger signaling): 0.892

Excerpt of the above (sample 5):
E32V: -1.48 natural log
L45M: -1.41 natural log
L31C: -1.52 natural log
K39A: -1.53 natural log
A49Y: -1.38 natural log
